Results collected from several papers.
Parts stem from different laboratories: compare values within a part only. Positions count from the first letter of the parent shown.
Chain of UniProt P11362 (whole entry, looked up): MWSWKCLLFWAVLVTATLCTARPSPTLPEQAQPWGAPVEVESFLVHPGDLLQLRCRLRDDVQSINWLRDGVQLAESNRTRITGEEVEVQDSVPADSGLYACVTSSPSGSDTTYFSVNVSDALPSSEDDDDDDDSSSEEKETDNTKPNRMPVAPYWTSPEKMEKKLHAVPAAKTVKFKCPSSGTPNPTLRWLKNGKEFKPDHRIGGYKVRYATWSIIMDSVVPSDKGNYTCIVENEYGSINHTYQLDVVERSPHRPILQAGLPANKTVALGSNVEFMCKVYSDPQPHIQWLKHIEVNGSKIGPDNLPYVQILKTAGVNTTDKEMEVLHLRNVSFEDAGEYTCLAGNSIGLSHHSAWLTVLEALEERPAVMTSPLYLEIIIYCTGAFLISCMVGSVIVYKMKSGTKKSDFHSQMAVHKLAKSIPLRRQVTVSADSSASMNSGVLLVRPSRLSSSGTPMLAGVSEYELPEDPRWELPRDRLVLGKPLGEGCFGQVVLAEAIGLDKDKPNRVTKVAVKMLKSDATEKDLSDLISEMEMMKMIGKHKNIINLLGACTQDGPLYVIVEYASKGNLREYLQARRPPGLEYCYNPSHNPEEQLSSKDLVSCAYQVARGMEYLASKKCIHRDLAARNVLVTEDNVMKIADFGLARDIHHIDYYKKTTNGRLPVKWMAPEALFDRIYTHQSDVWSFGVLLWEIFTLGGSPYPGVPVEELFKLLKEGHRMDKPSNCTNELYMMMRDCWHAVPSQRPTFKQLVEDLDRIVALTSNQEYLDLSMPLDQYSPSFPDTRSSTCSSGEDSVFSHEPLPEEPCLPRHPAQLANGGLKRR
Chain of UniProt P36896 (whole entry, looked up): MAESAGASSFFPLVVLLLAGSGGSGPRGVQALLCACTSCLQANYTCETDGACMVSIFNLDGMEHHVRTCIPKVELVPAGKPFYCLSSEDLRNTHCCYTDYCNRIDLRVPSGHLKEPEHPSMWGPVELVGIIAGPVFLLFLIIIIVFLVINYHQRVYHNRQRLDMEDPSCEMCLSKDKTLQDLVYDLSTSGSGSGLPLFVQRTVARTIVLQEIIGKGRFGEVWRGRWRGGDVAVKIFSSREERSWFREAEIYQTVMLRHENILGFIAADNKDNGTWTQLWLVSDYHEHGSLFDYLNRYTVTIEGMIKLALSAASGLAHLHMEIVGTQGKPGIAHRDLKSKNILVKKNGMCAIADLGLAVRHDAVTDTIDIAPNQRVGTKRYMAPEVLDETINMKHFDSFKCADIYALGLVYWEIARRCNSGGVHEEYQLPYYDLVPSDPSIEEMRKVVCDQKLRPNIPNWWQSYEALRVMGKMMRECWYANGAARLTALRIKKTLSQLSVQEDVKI
Chain of UniProt Q99558 (whole entry, looked up): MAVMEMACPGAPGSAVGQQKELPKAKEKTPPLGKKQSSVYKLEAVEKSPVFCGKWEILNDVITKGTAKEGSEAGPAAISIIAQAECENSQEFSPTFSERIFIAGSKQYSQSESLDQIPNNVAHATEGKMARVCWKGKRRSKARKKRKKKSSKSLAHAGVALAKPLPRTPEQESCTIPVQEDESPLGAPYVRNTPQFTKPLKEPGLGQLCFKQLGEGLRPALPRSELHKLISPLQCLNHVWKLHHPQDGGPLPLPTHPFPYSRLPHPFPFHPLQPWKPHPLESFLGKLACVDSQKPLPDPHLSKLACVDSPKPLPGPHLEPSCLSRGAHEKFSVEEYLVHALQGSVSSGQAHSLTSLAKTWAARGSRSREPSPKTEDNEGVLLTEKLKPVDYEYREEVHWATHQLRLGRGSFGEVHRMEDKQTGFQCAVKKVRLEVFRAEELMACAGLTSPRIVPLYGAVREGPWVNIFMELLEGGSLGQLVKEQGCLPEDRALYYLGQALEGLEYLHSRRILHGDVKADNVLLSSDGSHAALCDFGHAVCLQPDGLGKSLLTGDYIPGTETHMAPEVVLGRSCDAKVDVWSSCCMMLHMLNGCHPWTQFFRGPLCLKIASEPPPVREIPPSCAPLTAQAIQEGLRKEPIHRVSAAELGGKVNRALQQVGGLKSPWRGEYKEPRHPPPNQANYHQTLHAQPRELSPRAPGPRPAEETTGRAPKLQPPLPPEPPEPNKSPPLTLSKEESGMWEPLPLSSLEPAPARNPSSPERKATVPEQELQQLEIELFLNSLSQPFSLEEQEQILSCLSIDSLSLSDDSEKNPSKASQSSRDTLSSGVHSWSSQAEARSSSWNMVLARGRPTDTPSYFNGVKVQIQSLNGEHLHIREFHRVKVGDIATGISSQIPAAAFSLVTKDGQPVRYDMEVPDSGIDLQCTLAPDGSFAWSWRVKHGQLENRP
Chain of UniProt P06239 (whole entry, looked up): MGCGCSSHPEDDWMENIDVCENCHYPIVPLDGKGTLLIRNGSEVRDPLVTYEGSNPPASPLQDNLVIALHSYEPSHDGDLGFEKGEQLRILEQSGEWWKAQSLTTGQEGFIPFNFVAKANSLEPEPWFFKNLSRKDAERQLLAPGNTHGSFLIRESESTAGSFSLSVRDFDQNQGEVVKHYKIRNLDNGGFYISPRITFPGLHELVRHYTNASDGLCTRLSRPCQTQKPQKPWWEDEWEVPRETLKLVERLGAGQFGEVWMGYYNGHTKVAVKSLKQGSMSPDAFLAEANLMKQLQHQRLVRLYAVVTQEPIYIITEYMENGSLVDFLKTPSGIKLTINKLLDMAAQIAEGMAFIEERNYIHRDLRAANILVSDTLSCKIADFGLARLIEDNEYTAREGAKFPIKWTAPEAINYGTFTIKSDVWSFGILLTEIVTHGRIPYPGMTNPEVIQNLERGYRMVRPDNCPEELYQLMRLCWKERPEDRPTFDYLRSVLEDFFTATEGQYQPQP
Chain of UniProt Q04912 (whole entry, looked up): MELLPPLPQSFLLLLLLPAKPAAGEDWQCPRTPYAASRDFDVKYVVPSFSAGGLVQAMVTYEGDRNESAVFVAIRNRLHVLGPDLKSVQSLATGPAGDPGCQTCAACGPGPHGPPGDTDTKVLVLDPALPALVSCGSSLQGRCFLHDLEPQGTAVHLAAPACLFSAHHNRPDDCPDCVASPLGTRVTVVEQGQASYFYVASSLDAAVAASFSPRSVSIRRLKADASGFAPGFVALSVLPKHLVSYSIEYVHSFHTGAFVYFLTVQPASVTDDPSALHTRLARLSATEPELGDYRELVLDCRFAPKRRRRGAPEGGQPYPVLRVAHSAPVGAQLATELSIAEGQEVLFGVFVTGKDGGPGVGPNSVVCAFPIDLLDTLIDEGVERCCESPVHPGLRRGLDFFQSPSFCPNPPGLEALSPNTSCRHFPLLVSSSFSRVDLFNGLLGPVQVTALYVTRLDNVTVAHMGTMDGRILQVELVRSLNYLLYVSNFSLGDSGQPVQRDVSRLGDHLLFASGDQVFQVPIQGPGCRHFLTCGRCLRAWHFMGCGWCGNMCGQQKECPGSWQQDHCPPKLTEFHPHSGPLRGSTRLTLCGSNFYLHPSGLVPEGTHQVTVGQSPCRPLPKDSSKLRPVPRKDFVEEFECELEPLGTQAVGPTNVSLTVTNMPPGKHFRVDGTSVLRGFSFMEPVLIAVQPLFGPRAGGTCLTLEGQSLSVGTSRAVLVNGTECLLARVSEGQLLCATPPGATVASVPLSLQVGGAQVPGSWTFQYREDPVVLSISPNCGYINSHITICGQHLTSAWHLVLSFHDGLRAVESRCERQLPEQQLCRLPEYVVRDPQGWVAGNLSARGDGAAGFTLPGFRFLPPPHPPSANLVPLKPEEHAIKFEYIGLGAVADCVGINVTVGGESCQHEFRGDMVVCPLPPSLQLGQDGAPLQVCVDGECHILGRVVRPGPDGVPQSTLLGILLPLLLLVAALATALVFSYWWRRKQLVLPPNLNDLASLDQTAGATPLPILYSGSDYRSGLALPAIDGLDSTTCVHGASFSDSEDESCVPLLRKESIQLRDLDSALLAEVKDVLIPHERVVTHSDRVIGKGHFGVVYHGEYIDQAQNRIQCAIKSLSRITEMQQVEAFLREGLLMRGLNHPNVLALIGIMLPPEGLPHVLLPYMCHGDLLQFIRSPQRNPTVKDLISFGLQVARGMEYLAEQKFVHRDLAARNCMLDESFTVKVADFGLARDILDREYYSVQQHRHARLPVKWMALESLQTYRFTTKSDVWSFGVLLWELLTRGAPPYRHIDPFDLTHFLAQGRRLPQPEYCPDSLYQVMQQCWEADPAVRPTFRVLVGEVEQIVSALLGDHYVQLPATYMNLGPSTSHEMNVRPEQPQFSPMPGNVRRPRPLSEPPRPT
Chain of UniProt P27361 (whole entry, looked up): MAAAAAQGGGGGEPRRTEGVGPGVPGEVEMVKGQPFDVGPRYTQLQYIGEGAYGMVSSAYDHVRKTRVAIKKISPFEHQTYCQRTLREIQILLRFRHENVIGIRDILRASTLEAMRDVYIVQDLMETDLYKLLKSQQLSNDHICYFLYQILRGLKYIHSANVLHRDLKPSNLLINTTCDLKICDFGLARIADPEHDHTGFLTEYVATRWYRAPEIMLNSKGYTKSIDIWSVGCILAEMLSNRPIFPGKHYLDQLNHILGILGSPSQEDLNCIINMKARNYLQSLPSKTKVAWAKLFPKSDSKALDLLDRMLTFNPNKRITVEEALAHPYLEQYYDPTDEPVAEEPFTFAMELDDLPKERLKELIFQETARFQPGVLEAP

Series 1
Target: Alpha-2B adrenergic receptor (ADRA2B, Homo sapiens, UniProt P18089)
Chain of UniProt P18089 (whole entry, looked up): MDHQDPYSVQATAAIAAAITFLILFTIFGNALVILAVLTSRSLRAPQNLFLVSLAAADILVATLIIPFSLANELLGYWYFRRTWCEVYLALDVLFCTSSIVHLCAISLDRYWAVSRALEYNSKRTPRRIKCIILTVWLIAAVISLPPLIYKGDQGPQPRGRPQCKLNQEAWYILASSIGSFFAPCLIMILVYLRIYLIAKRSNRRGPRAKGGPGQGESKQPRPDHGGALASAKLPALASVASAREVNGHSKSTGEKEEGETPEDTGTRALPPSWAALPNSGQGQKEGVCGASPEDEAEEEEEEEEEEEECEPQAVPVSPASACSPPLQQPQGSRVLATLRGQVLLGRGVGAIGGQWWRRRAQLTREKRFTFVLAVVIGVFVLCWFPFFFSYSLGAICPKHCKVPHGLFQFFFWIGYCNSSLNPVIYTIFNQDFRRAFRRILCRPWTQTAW
Read-out: binding
Method: radioligand binding
Tested at: 10 µM
Quantity: inhibition
Cc1nc(C2CCN(C(=O)c3ccc(OC(F)(F)F)cc3N)CC2)c2ncc(N3CCN(C)CC3)cc2n1: -12.6%
CN(C)C(=O)Cn1cc(-c2nc([C@@](C)(c3ccc(-c4cnc(N)nc4)cc3)C3CC3)no2)cn1: -19.2%
Cc1nc(Cc2cccc(C(F)(F)F)c2)sc1-c1ccc(C(N)=O)nc1: 5.89%
COc1nc2ccc([C@@](O)(c3ccccc3)C3CCN(C(C)=O)CC3)cc2c(Cl)c1Cc1ccc(-n2cccn2)cc1: 54.6%
O[C@]1(C(F)(F)F)CCCC[C@H]1Nc1ccc(F)cc1: -20.1%
Cc1cc(-n2nc(Cc3cc(F)cc(C(F)(F)F)c3)nc2C)ccc1C(N)=O: 10.1%
O=C(Nc1cnc(Oc2ccc(F)cc2)nc1)N1CCc2ncccc2[C@@H]1c1ccc(F)cc1: 9.66%
CCCOc1ccc([C@H]2[C@H](C(=O)O)[C@@H](c3ccc4c(c3)OCO4)CN2CC(=O)Nc2c(CC)cccc2CC)cc1: 10.4%
Cc1nccc(COC(=O)N2C[C@@H]3[C@@H](CNC(=O)c4ccc5[nH]nnc5c4)[C@@H]3C2)n1: 1.15%
CS(=O)(=O)NCC[C@H](NC(=O)c1cncc2c1cnn2-c1ccc(F)cc1)c1ccnc(S(C)(=O)=O)c1: -2.26%
CC(C)(O)c1cncc(-c2nc3ccc(F)cc3n2C2CC2)c1: 76.4%
CC1=C(C#N)C(c2ccc3c(c2)c(NC(=O)c2ccccc2C)nn3C)C(C#N)=C(C)N1: 20.7%
Nc1c(C(=O)NCc2ccc(C(=O)NCCCC3CCCCC3)cc2)cnn1-c1ccccc1: 17.7%
CCOCCn1cc(C(=O)Nc2ccc(-n3nc(-c4cccnc4)cc3C(F)(F)F)cn2)ccc1=O: 4.9%
COc1cc(-c2cn(C3CCc4ccccc4N(CC(F)(F)F)C3=O)nn2)ccc1-n1ccc(C)n1 (stereo not shown): 7.14%
CC(=O)Nc1c(F)cc(C(=O)N[C@H]2CC[C@H](O)CC2)cc1O[C@@H](C)c1ccccc1: 3.38%
CNC(=O)c1ccc(Nc2ncc(C(F)(F)F)c(NCc3nccnc3N(C)S(C)(=O)=O)n2)cc1: 5.76%
C[C@H](NC(=O)c1cnc2n1[C@](C)(Cc1ccc(C#N)cc1)C(=O)N2c1cc(Cl)c(F)c(Cl)c1)C(=O)NC1(c2ccccn2)CC1: -3.79%
Cc1nc(N2CC[C@@H](O)C2)ncc1-c1cc(C(F)(F)F)cc2[nH]ncc12: 12.5%
CN1CCN(C(=O)C(C)(C)c2ccc(C(=O)Nc3cn4cc(-c5ccncc5)ccc4n3)cc2)CC1: 19.3%

Series 2
Target: Prothrombin, mature alpha-thrombin (F2, Homo sapiens, UniProt P00734)
Method: aptamer microarray, sandwich
Molecule type: DNA with 2'F-ANA
Medium: in vitro
Tested at: 200 nM
Setting: whole 15-mer aptamer, many near background
Added: Cy3 exosite-II aptamer, 400 nM
Reading: higher = stronger binding
Quantity: mean fluorescence intensity
Oligonucleotide: GGTTGGTGTGGTTGG
2'F-ANA at 1 3 4 7 9 14: 96.7 a.u.
2'F-ANA at 1 2 3 4 5 6 11 13: 70.1 a.u.
2'F-ANA at 1 3 6 7 8 15: 331 a.u.
2'F-ANA at 1 2 3 4 5 10 11 12 13: 49.3 a.u.
2'F-ANA at 4 9 11 14: 257 a.u.
2'F-ANA at 2 4 7 8 12 14 15: 186 a.u.
2'F-ANA at 1 2 3 5 10 13 14 15: 50.2 a.u.
2'F-ANA at 2 3 4 5 6 7 12 14 15: 58.5 a.u.

Series 3
Structure (SMILES): Cc1ccc(S(=O)(=O)/C=C/C#N)cc1
Read-out: enzyme activity
Mode: inhibitor
Tested at: 0.5 µM
Relative to: control
Quantity: remaining activity
FGFR1 (Homo sapiens, UniProt P11362): 106%
LCK (Homo sapiens, UniProt P06239): 93.7%
TBK1 (Homo sapiens, UniProt Q9UHD2): 83.9%
ACVR1B (Homo sapiens, UniProt P36896): 107%
MAPK3 (Homo sapiens, UniProt P27361): 98.2%
MAP3K14 (Homo sapiens, UniProt Q99558): 103%
MST1R (Homo sapiens, UniProt Q04912): 113%
MAPKAPK2 (Homo sapiens, UniProt P49137): 93.7%
FRK (Homo sapiens, UniProt P42685): 91.6%
WEE1 (Homo sapiens, UniProt P30291): 96.4%
CSNK1G3 (Homo sapiens, UniProt Q9Y6M4): 88.3%
FGFR3 (Homo sapiens, UniProt P22607): 95.2%
TEK (Homo sapiens, UniProt Q02763): 101%

Series 4
Target: CCND3, cyclin fold, Cln2 fusion (human)
Method: yeast growth competition, sequencing
Medium: yeast
Setting: weak parent motif
Relative to: not given
Reading: higher = stronger binding
Quantity: normalised enrichment score
Parent: MICAL3 docking peptide (human); LQLRRQLSFSEDS; partner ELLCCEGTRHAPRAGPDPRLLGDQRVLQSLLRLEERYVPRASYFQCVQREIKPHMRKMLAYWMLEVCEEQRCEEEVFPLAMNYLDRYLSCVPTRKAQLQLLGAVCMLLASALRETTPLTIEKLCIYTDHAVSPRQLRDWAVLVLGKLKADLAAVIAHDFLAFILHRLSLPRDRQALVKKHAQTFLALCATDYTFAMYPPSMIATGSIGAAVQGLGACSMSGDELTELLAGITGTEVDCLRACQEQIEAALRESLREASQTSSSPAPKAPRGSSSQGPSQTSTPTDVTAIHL
LQLRRQISFSEDS [L7I]: 0.192
LGLRRQLSFSEDS [Q2G]: -0.000214
LWLRRQLSFSEDS [Q2W]: -0.153
LQLRRQLSFSEES [D12E]: -0.0665
LQLRRGLSFSEDS [Q6G]: 0.0687
LQLRRQLSFWEDS [S10W]: -0.422
LQLRTQLSFSEDS [R5T]: 0.0777
LQLRRQLSFNEDS [S10N]: 0.0946

For quick reference, copied from above (series 2):
2'F-ANA at 1 2 3 4 5 6 11 13: 70.1 a.u.
2'F-ANA at 1 3 6 7 8 15: 331 a.u.
2'F-ANA at 1 2 3 4 5 10 11 12 13: 49.3 a.u.
2'F-ANA at 4 9 11 14: 257 a.u.
2'F-ANA at 2 4 7 8 12 14 15: 186 a.u.
